Experimental data collected from several papers.
Each line is one published result; not all experiments were run side by side. Several values in a cell are separate wells, animals, samples, runs or records. ± marks the error that the study gave. In brackets after ≈: the same amount, converted by molar mass.
Organism: Staphylococcus aureus

Compound = CC1(C)OCC(C(=O)NCCc2ccccc2)O1 (stereo not drawn); test = crystal violet staining; setting = 500 µg/mL, 24 h; how to read = baseline: untreated; measurement = residual biofilm; result = 41 ± 13%
Compound = CC(=O)NC[C@H]1CN(c2ccc(N3CCOCC3)c(F)c2)C(=O)O1; test = broth microdilution; test system = methicillin-resistant isolates; measurement = MIC50; result = 0.5 µg/mL
Compound = CN[C@H](CC(C)C)C(=O)N[C@H]1C(=O)N[C@@H](CC(N)=O)C(=O)N[C@H]2C(=O)N[C@H]3C(=O)N[C@H](C(=O)N[C@H](C(=O)O)c4cc(O)cc(O)c4-c4cc3ccc4O)[C@H](O)c3ccc(c(Cl)c3)Oc3cc2cc(c3O[C@@H]2O[C@H](CO)[C@@H](O)[C@H](O)[C@H]2O[C@H]2C[C@](C)(N)[C@H](O)[C@H](C)O2)Oc2ccc(cc2Cl)[C@H]1O; test system = CMCC 26003, mouse skin infection model; setting = topical, 2 mg/kg, day 12; measurement = remaining wound area; result = 8.21%
Compound = CN[C@H](CC(C)C)C(=O)N[C@H]1C(=O)N[C@@H](CC(N)=O)C(=O)N[C@H]2C(=O)N[C@H]3C(=O)N[C@H](C(=O)N[C@H](C(=O)O)c4cc(O)cc(O)c4-c4cc3ccc4O)[C@H](O)c3ccc(c(Cl)c3)Oc3cc2cc(c3O[C@@H]2O[C@H](CO)[C@@H](O)[C@H](O)[C@H]2O[C@H]2C[C@](C)(N)[C@H](O)[C@H](C)O2)Oc2ccc(cc2Cl)[C@H]1O; test system = clinical isolates; setting = ≤1 µg/mL, MIC breakpoint; measurement = isolates inhibited; result = 13.6%
Compound = O=C(O)c1cc(O)c(O)c(O)c1; test = bacterial growth; test system = ATCC 29213; setting = 24 h; measurement = IC50; result = > 100 µM
Compound = C/C(=C\C(=O)OCCCCCCCCC(=O)O)C[C@@H]1OC[C@H](C[C@@H]2O[C@H]2[C@@H](C)[C@H](C)O)[C@@H](O)[C@H]1O; test system = USA300, mouse, skin wound infection; setting = topical, 100 µL twice daily, day 7; how to read = baseline: initial; measurement = unhealed wound area; result = 77.2%
Compound = Cc1ccc(C[C@H](NC(=O)[C@@H](Cc2ccccc2)NC(=O)[C@@H](Cc2c[nH]c3ccccc23)NC(=O)[C@@H](N)CCCN)C(=O)N[C@H](Cc2ccccc2)C(=O)N[C@@H](CCN)C(N)=O)cc1; test system = ATCC 33591, methicillin-resistant; measurement = IC50; result = > 20 µg/mL
Compound = CN[C@H](CC(C)C)C(=O)N[C@H]1C(=O)N[C@@H](CC(N)=O)C(=O)N[C@H]2C(=O)N[C@H]3C(=O)N[C@H](C(=O)N[C@H](C(=O)O)c4cc(O)cc(O)c4-c4cc3ccc4O)[C@H](O)c3ccc(c(Cl)c3)Oc3cc2cc(c3O[C@@H]2O[C@H](CO)[C@@H](O)[C@H](O)[C@H]2O[C@H]2C[C@](C)(N)[C@H](O)[C@H](C)O2)Oc2ccc(cc2Cl)[C@H]1O; test system = USA300 LAC, female ICR mice, peritonitis, liver; measurement = bacterial load; result = 5.21 log CFU and 5.57 log CFU and 5.66 log CFU and 4.57 log CFU and 4.21 log CFU
Compound = [Cl][Fe]([Cl])[Cl]; setting = 24 h, 37 °C; measurement = MIC50; result = > 1600 µM
Compound = O=c1c(O[C@@H]2O[C@H](CO)[C@H](O)[C@H](O)[C@H]2O)c(-c2ccc(O)c(O)c2)oc2cc(O)cc(O)c12; test = bacterial growth; test system = ATCC 29213; setting = 24 h; measurement = IC50; result = > 100 µM
Compound = CN[C@H](CC(C)C)C(=O)N[C@H]1C(=O)N[C@@H](CC(N)=O)C(=O)N[C@H]2C(=O)N[C@H]3C(=O)N[C@H](C(=O)N[C@H](C(=O)O)c4cc(O)cc(O)c4-c4cc3ccc4O)[C@H](O)c3ccc(c(Cl)c3)Oc3cc2cc(c3O[C@@H]2O[C@H](CO)[C@@H](O)[C@H](O)[C@H]2O[C@H]2C[C@](C)(N)[C@H](O)[C@H](C)O2)Oc2ccc(cc2Cl)[C@H]1O; test = broth microdilution; test system = daptomycin-non-susceptible clinical isolates; measurement = MIC range; result = 4 to 8 µg/mL (≈ 2.76 to 5.52 µM)
Compound = CN[C@H](CC(C)C)C(=O)N[C@H]1C(=O)N[C@@H](CC(N)=O)C(=O)N[C@H]2C(=O)N[C@H]3C(=O)N[C@H](C(=O)N[C@H](C(=O)O)c4cc(O)cc(O)c4-c4cc3ccc4O)[C@H](O)c3ccc(c(Cl)c3)Oc3cc2cc(c3O[C@@H]2O[C@H](CO)[C@@H](O)[C@H](O)[C@H]2O[C@H]2C[C@](C)(N)[C@H](O)[C@H](C)O2)Oc2ccc(cc2Cl)[C@H]1O; test system = ATCC 29213 MSSA; setting = LB without zinc; measurement = MIC; result = 1 µg/mL (≈ 0.69 µM)
Compound = CC1(C)S[C@@H]2[C@H](NC(=O)[C@H](N)c3ccccc3)C(=O)N2[C@H]1C(=O)O; test system = CGMCC 1.9; setting = concentration not given, 18 h, 37 °C; measurement = inhibition zone diameter; result = 11 mm
Compound = CCCCCCCCCC(=O)N[C@@H](Cc1c[nH]c2ccccc12)C(=O)N[C@H](CC(N)=O)C(=O)N[C@@H](CC(=O)O)C(=O)N[C@@H]1C(=O)NCC(=O)N[C@@H](CCCN)C(=O)N[C@@H](CC(=O)O)C(=O)N[C@H](C)C(=O)N[C@@H](CC(=O)O)C(=O)NCC(=O)N[C@H](CO)C(=O)N[C@@H]([C@H](C)CC(=O)O)C(=O)N[C@@H](CC(=O)c2ccccc2N)C(=O)O[C@@H]1C; test system = MRSA ATCC BAA-1556; setting = MIC; measurement = time to complete killing; result = 4 to 5 h
Compound = Cc1onc(-c2ccccc2)c1C(=O)N[C@@H]1C(=O)N2[C@@H]1SC(C)(C)[C@@H]2C(=O)O; test system = CGMCC 1.9; setting = concentration not given, 18 h, 37 °C; measurement = inhibition zone diameter; result = 12 mm
Compound = Cc1ccc(C[C@H](NC(=O)[C@@H](Cc2ccccc2)NC(=O)[C@@H](Cc2c[nH]c3ccccc23)NC(=O)[C@@H](N)CCCN)C(=O)N[C@H](Cc2ccccc2)C(=O)N[C@@H](Cc2ccc(N)cc2)C(N)=O)cc1; test = bacterial growth; test system = ATCC 29213; measurement = IC50; result = > 20 µg/mL
Compound = C[C@@H]1O[C@@H](OC[C@H]2O[C@@H](Oc3cc4c(O)cc(O)cc4[o+]c3-c3cc(O)c(O)c(O)c3)[C@H](O)[C@@H](O)[C@@H]2O)[C@H](O)[C@H](O)[C@H]1O; test = bacterial growth; test system = ATCC 29213; setting = 24 h; measurement = IC50; result = 22 µM
Compound = c1ccc(CN(CCN(Cc2ccccn2)Cc2ccccn2)Cc2ccccn2)nc1; test = Calgary biofilm device; test system = MRSA BAA-1707; measurement = MBC; result = > 2000 µM
Compound = CC[C@H]1OC(=O)[C@H](C)[C@@H](O[C@H]2C[C@@](C)(OC)[C@@H](O)[C@H](C)O2)[C@H](C)[C@@H](O[C@@H]2O[C@H](C)C[C@H](N(C)C)[C@H]2O)[C@](C)(O)C[C@@H](C)C(=O)[C@H](C)[C@@H](O)[C@]1(C)O; test system = CGMCC 1.9; setting = concentration not given, 18 h, 37 °C; measurement = inhibition zone diameter; result = 20.5 mm
Compound = CN[C@H](CC(C)C)C(=O)N[C@H]1C(=O)N[C@@H](CC(N)=O)C(=O)N[C@H]2C(=O)N[C@H]3C(=O)N[C@H](C(=O)N[C@H](C(=O)O)c4cc(O)cc(O)c4-c4cc3ccc4O)[C@H](O)c3ccc(c(Cl)c3)Oc3cc2cc(c3O[C@@H]2O[C@H](CO)[C@@H](O)[C@H](O)[C@H]2O[C@H]2C[C@](C)(N)[C@H](O)[C@H](C)O2)Oc2ccc(cc2Cl)[C@H]1O; test system = MSSA, 67 strains; measurement = MIC50; result = 1 µg/mL
Compound = NC[C@H]1O[C@H](O[C@H]2[C@H](O)[C@@H](O[C@H]3O[C@H](CO)[C@@H](O)[C@H](N)[C@H]3O)[C@H](N)C[C@@H]2N)[C@H](O)[C@@H](O)[C@@H]1O; test system = ATCC 25923; setting = 8 µg per disc, 24 h, 37 °C; measurement = inhibition zone diameter; result = 14.2 mm
Compound = COc1cc(-c2oc3cc(O)cc(O)c3c(=O)c2O[C@@H]2O[C@H](CO[C@@H]3O[C@@H](C)[C@H](O)[C@@H](O)[C@H]3O)[C@@H](O)[C@H](O)[C@H]2O)ccc1O; test = bacterial growth; test system = ATCC 29213; setting = 24 h; measurement = IC50; result = > 100 µM
Compound = O=C(O)c1ccc(-n2cc(CNc3ccc(Br)c(C(F)(F)F)c3)c(-c3cccc(F)c3)n2)cc1; test system = ATCC 25923; setting = biofilm, Calgary device; measurement = MBEC; result = 4 × MIC
Compound = C=CC[C@@H]1c2ccc(OC)c(OC)c2CN2CCc3cc4c(cc3[C@H]12)OCO4; test system = P2rx7+/+ mice, skin wound infection; setting = dose not given, day 1; how to read = baseline: day 0; measurement = relative wound size; result = 0.95 and 0.93 and 0.81 and 0.94 and 1.08
Compound = O=C(O)c1ccc(-n2cc(CNc3cc(Br)cc(C(F)(F)F)c3)c(-c3ccc(F)c(F)c3)n2)cc1; test = time-kill; test system = ATCC 700699 (MRSA); setting = 4 × MIC, 4 h; measurement = log reduction in viable cells; result = 4 log CFU/mL
Compound = CC(C)c1ccc(/C=C2\NC(=S)N(c3ccccc3)C2=O)cc1; test system = ATCC 6538; setting = concentration not given; measurement = inhibition zone diameter; result = 11 ± 0.77 mm
Compound = CN[C@H](CC(C)C)C(=O)N[C@H]1C(=O)N[C@@H](CC(N)=O)C(=O)N[C@H]2C(=O)N[C@H]3C(=O)N[C@H](C(=O)N[C@H](C(=O)O)c4cc(O)cc(O)c4-c4cc3ccc4O)[C@H](O)c3ccc(c(Cl)c3)Oc3cc2cc(c3O[C@@H]2O[C@H](CO)[C@@H](O)[C@H](O)[C@H]2O[C@H]2C[C@](C)(N)[C@H](O)[C@H](C)O2)Oc2ccc(cc2Cl)[C@H]1O; test = time-kill; test system = ATCC 25923; setting = 1 µg/mL; measurement = time to complete killing; result = 8 h
Compound = COC(=O)[C@H](Cc1ccccc1)NC(=O)C1COC2(CCCCC2)OC1; test = crystal violet staining; setting = 500 µg/mL, 24 h; how to read = baseline: untreated; measurement = residual biofilm; result = 22 ± 3%
Compound = O=C(O)c1ccc(-n2cc(CNc3ccc(Cl)c(C(F)(F)F)c3)c(-c3cccc(F)c3)n2)cc1; test system = ATCC 700699, MRSA; setting = 4 × MIC; measurement = time to kill below detection; result = ≤ 10 h
Compound = CC(C)c1ccc(/C=C2\N=C(SCc3ccccc3)N(c3ccccc3)C2=O)cc1; test system = ATCC 6538; setting = concentration not given; measurement = inhibition zone diameter; result = 12 ± 0.1 mm
Compound = O=c1c(O)c(-c2cc(O)c(O)c(O)c2)oc2cc(O)cc(O)c12; test = bacterial growth; test system = ATCC 29213; setting = 24 h; measurement = IC50; result = > 100 µM
Compound = c1ccc(CN(CCN(Cc2ccccn2)Cc2ccccn2)Cc2ccccn2)nc1; test = Calgary Biofilm Device; test system = MRSA 1707; setting = 24 h; measurement = MBC; result = 375 µM (≈ 159 µg/mL)
Compound = COc1c(N2C[C@@H]3CCCN[C@@H]3C2)c(F)cc2c(=O)c(C(=O)O)cn(C3CC3)c12; test = broth microdilution; test system = methicillin-resistant isolates; measurement = MIC50; result = 1 µg/mL

A few entries again:
Compound = CC(C)c1ccc(/C=C2\N=C(SCc3ccccc3)N(c3ccccc3)C2=O)cc1; test system = ATCC 6538; setting = concentration not given; measurement = inhibition zone diameter; result = 12 ± 0.1 mm
Compound = C[C@@H]1O[C@@H](OC[C@H]2O[C@@H](Oc3cc4c(O)cc(O)cc4[o+]c3-c3cc(O)c(O)c(O)c3)[C@H](O)[C@@H](O)[C@@H]2O)[C@H](O)[C@H](O)[C@H]1O; test = bacterial growth; test system = ATCC 29213; setting = 24 h; measurement = IC50; result = 22 µM
Compound = CCCCCCCCCC(=O)N[C@@H](Cc1c[nH]c2ccccc12)C(=O)N[C@H](CC(N)=O)C(=O)N[C@@H](CC(=O)O)C(=O)N[C@@H]1C(=O)NCC(=O)N[C@@H](CCCN)C(=O)N[C@@H](CC(=O)O)C(=O)N[C@H](C)C(=O)N[C@@H](CC(=O)O)C(=O)NCC(=O)N[C@H](CO)C(=O)N[C@@H]([C@H](C)CC(=O)O)C(=O)N[C@@H](CC(=O)c2ccccc2N)C(=O)O[C@@H]1C; test system = MRSA ATCC BAA-1556; setting = MIC; measurement = time to complete killing; result = 4 to 5 h
Compound = COc1cc(-c2oc3cc(O)cc(O)c3c(=O)c2O[C@@H]2O[C@H](CO[C@@H]3O[C@@H](C)[C@H](O)[C@@H](O)[C@H]3O)[C@@H](O)[C@H](O)[C@H]2O)ccc1O; test = bacterial growth; test system = ATCC 29213; setting = 24 h; measurement = IC50; result = > 100 µM
Compound = CN[C@H](CC(C)C)C(=O)N[C@H]1C(=O)N[C@@H](CC(N)=O)C(=O)N[C@H]2C(=O)N[C@H]3C(=O)N[C@H](C(=O)N[C@H](C(=O)O)c4cc(O)cc(O)c4-c4cc3ccc4O)[C@H](O)c3ccc(c(Cl)c3)Oc3cc2cc(c3O[C@@H]2O[C@H](CO)[C@@H](O)[C@H](O)[C@H]2O[C@H]2C[C@](C)(N)[C@H](O)[C@H](C)O2)Oc2ccc(cc2Cl)[C@H]1O; test system = MSSA, 67 strains; measurement = MIC50; result = 1 µg/mL
